Measured values pooled from the literature.
“And” joins repeats or separate records; there may be more than shown. ± marks the error that the study gave.
TARDBP aggregated: TAR DNA-binding protein 43, aggregated (TARDBP, Homo sapiens, UniProt Q13148)
Chain of UniProt Q13148 (whole entry, looked up): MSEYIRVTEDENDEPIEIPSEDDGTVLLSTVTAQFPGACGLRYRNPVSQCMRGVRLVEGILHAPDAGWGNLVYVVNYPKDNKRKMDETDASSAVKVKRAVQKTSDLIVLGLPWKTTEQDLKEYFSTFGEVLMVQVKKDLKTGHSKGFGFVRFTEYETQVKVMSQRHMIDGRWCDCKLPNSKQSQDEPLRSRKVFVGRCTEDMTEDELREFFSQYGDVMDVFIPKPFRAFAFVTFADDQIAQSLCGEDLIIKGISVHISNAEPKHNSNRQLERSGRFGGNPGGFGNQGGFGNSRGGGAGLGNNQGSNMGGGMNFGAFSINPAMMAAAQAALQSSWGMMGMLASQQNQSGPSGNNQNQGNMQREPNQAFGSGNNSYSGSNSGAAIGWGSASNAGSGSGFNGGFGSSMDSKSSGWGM
Sodium- and chloride-dependent glycine transporter 2: Sodium- and chloride-dependent glycine transporter 2 (Homo sapiens, UniProt Q9Y345)
Chain of UniProt Q9Y345 (whole entry, looked up): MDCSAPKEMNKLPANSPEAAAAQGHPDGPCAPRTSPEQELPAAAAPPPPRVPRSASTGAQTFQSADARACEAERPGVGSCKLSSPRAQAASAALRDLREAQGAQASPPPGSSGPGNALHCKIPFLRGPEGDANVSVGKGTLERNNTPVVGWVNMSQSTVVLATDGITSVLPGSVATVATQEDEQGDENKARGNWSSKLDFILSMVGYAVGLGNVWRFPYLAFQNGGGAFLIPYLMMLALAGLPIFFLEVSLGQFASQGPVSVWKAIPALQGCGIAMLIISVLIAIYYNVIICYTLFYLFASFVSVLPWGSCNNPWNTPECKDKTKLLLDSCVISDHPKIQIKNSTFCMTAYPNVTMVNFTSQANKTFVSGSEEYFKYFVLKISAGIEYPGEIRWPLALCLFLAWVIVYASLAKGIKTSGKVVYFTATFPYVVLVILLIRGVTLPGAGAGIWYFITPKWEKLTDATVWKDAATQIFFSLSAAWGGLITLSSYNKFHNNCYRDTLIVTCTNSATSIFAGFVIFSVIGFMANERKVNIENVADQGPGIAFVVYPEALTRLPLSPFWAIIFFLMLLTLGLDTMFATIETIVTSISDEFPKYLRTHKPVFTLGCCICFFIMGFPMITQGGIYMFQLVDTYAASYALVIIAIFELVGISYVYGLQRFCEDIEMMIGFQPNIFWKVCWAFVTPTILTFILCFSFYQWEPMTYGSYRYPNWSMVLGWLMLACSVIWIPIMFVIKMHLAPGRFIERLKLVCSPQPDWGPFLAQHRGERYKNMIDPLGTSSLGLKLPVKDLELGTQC
EEF1A1: Elongation factor 1-alpha 1 (EEF1A1, Homo sapiens, UniProt P68104)
Chain of UniProt P68104 (whole entry, looked up): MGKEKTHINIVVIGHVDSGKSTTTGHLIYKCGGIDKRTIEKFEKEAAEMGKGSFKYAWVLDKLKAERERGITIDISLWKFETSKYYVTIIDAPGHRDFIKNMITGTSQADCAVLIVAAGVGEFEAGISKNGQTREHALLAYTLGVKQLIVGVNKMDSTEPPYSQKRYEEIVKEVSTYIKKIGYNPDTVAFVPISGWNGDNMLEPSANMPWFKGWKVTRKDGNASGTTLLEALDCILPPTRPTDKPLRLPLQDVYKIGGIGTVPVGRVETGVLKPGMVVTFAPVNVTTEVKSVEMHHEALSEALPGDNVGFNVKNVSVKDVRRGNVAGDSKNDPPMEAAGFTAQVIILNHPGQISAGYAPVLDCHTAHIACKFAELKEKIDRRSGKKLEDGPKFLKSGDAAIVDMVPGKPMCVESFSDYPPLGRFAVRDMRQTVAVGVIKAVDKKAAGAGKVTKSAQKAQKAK
17-beta-hydroxysteroid dehydrogenase 13: 17-beta-hydroxysteroid dehydrogenase 13 (Homo sapiens, UniProt Q7Z5P4)
Chain of UniProt Q7Z5P4 (whole entry, looked up): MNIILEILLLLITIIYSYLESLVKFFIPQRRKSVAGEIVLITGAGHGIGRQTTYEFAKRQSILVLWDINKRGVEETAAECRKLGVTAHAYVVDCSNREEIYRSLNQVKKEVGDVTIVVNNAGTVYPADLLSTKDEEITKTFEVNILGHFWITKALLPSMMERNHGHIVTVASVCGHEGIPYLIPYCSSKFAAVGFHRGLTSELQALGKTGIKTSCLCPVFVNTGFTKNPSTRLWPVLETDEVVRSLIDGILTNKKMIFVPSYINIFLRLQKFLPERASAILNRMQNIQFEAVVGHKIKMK
Gria1/Gria2: Glutamate receptor AMPA 1/2 (Gria1/Gria2, Rattus norvegicus, UniProt P19490+P19491)
Chain of UniProt P19491 (whole entry, looked up): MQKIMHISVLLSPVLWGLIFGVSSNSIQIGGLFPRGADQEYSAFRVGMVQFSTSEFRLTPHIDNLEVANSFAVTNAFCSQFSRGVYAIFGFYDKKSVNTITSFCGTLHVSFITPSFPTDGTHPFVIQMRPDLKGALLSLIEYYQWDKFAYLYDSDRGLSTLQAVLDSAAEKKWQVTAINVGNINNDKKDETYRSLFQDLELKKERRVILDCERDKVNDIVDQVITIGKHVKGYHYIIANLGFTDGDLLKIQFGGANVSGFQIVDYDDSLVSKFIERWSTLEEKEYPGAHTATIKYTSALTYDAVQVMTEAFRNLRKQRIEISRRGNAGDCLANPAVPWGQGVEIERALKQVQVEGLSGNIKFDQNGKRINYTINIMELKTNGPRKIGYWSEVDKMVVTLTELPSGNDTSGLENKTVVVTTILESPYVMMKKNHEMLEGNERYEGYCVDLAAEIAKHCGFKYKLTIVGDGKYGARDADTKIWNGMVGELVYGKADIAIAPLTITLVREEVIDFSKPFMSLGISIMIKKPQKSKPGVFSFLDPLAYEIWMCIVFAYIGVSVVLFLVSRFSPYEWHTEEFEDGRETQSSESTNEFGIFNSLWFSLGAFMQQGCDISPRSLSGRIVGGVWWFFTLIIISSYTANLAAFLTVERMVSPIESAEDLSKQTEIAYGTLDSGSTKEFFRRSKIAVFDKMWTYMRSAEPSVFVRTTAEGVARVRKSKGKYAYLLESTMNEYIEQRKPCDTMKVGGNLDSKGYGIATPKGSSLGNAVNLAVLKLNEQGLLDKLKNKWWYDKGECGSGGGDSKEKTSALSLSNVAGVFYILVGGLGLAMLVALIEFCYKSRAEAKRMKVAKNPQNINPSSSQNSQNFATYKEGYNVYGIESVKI
Chain of UniProt P19490 (whole entry, looked up): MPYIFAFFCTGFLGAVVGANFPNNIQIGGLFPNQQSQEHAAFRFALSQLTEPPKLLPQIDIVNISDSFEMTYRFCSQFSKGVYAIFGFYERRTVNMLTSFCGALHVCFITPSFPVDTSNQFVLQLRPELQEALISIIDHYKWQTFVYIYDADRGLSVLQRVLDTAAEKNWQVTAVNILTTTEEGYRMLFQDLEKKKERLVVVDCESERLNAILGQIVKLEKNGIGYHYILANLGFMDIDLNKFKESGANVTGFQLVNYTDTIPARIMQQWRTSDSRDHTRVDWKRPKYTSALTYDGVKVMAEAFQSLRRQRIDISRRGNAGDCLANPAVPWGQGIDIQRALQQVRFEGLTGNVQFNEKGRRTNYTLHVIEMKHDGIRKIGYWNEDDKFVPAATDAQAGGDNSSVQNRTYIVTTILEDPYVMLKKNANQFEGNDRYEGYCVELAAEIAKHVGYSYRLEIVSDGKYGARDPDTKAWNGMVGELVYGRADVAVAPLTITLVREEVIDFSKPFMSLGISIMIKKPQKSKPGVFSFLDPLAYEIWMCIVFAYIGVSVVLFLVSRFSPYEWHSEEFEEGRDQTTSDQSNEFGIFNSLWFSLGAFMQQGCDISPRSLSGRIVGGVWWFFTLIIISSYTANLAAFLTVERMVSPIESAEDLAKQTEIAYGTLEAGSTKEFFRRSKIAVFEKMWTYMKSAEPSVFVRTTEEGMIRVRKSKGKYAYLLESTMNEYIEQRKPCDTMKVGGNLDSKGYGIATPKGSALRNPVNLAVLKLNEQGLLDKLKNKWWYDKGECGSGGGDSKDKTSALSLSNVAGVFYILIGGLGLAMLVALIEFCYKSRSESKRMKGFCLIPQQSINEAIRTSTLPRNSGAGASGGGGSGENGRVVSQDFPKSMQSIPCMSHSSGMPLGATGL
Chain of UniProt O00206 (whole entry, looked up): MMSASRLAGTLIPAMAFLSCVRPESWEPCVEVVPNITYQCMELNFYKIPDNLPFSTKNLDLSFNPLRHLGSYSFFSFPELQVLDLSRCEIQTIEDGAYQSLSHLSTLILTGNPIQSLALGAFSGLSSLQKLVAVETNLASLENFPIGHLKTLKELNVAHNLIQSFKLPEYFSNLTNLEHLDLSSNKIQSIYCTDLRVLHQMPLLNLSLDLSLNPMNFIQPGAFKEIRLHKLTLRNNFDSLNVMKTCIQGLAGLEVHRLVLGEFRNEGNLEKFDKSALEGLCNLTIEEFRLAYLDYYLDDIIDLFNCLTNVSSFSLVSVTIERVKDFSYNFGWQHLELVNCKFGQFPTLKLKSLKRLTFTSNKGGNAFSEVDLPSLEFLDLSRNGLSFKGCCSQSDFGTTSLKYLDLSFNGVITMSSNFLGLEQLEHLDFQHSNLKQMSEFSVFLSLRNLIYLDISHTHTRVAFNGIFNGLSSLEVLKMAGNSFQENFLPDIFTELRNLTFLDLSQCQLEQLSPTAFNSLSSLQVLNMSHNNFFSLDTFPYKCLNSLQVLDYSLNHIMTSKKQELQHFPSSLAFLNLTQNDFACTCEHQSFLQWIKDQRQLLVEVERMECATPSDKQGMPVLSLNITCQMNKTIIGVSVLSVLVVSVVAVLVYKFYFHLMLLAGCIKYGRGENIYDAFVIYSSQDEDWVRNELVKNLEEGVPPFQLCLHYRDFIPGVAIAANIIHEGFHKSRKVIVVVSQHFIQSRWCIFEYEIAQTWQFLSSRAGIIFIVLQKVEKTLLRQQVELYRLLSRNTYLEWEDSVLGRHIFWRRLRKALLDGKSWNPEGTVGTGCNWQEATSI
Chain of UniProt Q9BWD1 (whole entry, looked up): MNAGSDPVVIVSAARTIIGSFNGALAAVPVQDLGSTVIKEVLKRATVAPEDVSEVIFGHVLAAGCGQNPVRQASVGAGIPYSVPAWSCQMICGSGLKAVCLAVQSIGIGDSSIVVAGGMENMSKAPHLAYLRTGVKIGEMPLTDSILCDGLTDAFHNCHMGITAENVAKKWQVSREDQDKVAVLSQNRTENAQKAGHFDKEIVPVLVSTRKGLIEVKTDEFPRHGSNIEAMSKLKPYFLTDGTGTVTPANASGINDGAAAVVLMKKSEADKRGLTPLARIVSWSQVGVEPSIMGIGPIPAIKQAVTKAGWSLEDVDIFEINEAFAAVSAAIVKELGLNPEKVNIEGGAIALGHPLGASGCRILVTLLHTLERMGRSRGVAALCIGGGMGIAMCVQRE

Structure (SMILES) | target or system | assay | system | setting | how to read | quantity | result
COc1cc(C2C(NC(=O)c3ccc(NC(=O)OC(C)(C)C)cc3)(C(=O)O)C(c3ccc(OC(=O)c4cccs4)c(OC)c3)C2(NC(=O)c2ccc(NC(=O)OC(C)(C)C)cc2)C(=O)O)ccc1OC(=O)c1cccs1 (stereo not drawn) | GLP1R (Homo sapiens, UniProt P43220, L201A) | cAMP accumulation, agonist | – | receptor mutant | baseline: wild type | Emax | 45.5 ± 8.98%
CCCCCCCCCCCCC/C=C/C=O | PSMB8 (Homo sapiens, UniProt P28062) | competitive isoTOP-ABPP | proteome, soluble, MDA-MB-231 | 100 µM, 60 min, with: iodoacetamide probe | baseline: DMSO over compound-treated, higher = stronger cysteine blockade | isoTOP-ABPP competition ratio | 1.1
CCCCCc1ccc(Cc2cc(/C=C/C(=O)OC)cc3cccnc23)cc1 | Glideosome-associated protein 50 (GAP50, Plasmodium falciparum, UniProt Q8I2X3) | differential scanning fluorimetry | – | – | – | ΔTm | 0 °C
O=C1c2sc(-c3ccc(N4CCC(CO)CC4)nc3F)nc2CCN1c1cccnc1 | TARDBP aggregated | binding, surface plasmon resonance | brain-derived TDP-43 aggregates | 75 nM | – | SPR response | 3.04 RU
O=C(NC1CCN(Cc2ccccc2)CC1)c1ccc(Cl)cc1Cl | Sodium- and chloride-dependent glycine transporter 2 | MS binding competition | – | 10 µM | – | remaining specific binding | 83.4 ± 4.5%
O=S(=O)(NCC(c1cccnc1)N1CCN(c2ccc(F)cc2)CC1)c1ccccc1 (stereo not drawn) | Trypanosoma cruzi | reporter mRNA translation, inhibitor, refers to: capped polyadenylated Renilla luciferase mRNA | cell-free extract | concentration not given | baseline: control RNA | relative translation | 109%
C#CC[C@H](NC(=O)c1ccc(C(=O)c2ccccc2)cc1)C(=O)NCCCCCC(=O)N[C@@H](CCCCNC(=O)CSCCNC(=O)CCNC(=O)[C@H](O)C(C)(C)COP(=O)(O)OP(=O)(O)OC[C@H]1O[C@@H](n2cnc3c(N)ncnc32)[C@H](O)[C@@H]1OP(=O)(O)O)C(N)=O | EEF1A1 | affinity enrichment LC-MS/MS | HEK293 cell extract, PCAF transfected | – | baseline: 1 over empty vector | enrichment ratio | 2.1
CCN1CCSC1=CC=CC1=[N+](CC)CCS1 | Trypanosoma cruzi | reporter mRNA translation, inhibitor, refers to: capped polyadenylated Renilla luciferase mRNA | cell-free extract | concentration not given | baseline: control RNA | relative translation | 90.1%
CC(C)=CC1OC(C)(C)C2C=C3C(=O)C(Cl)=CC(O)C3C3C(O)C4OC4C(=O)C132 (stereo not drawn) | Tyrosine-protein kinase ABL1, non-phosphorylated (ABL1, Homo sapiens, UniProt P00519) | cell-free assay, competition with immobilised ligand | – | 10 µM | – | remaining binding | 67%
Nc1ccccc1C(=O)NC1CCN(Cc2ccccc2)CC1 | Sodium- and chloride-dependent glycine transporter 2 | MS binding competition | – | 10 µM | – | remaining specific binding | 94.9 ± 3.5%
O=S(=O)(Nc1ccc(CO)cc1)c1ccc(Cl)c(Cl)c1 | 17-beta-hydroxysteroid dehydrogenase 13 | substrate, NADH fluorescence | – | – | – | Vmax | 0.15 nM NADH/s/nM enzyme
CC1(C)C[C@@H](Nc2cccc(-c3sc(C(=O)O)c(OCC(=O)O)c3Cl)c2)CCN1S(=O)(=O)Cc1cccc(NC(=O)CN2CCC(c3ccc4c(c3)oc(=O)n4C3CCC(=O)NC3=O)CC2)c1 (stereo partly drawn) | PTPN2 (Homo sapiens, UniProt P17706, H30A/P33A/R35A) | degrader, bio-layer interferometry | – | 15.6 nM | higher = more binding | BLI binding response | 0.0555 a.u.
CC1=C(/C=C/C(C)=C\C=C\C(C)=C\C=O)C(C)(C)CCC1 | Rhodopsin (RHO, Homo sapiens, UniProt P08100, P23H) | ER retention, co-localization with calnexin | COS-7 transfected P23H | 10 µM, multinucleated cells | – | Pearson correlation coefficient | 0.686 ± 0.018
CC(C)[C@@H]1NC(=O)[C@H](Cc2ccccc2)NC(=O)CSC[C@@H](C(N)=O)NC(=O)[C@H](CCC(=O)O)NC(=O)[C@H](CO)NC(=O)[C@H](Cc2c[nH]c3cccc(Cl)c23)NC(=O)[C@H](C2CCCCC2)NC(=O)[C@H](C(C)C)NC(=O)[C@H](Cc2ccc(O)cc2)NC(=O)[C@H](CC(=O)O)NC(=O)[C@H](Cc2c[nH]c3ccccc23)NC(=O)[C@H](Cc2ccc(N)nc2)NC(=O)[C@H](Cc2c[nH]c3ccc(Cl)cc23)NC(=O)[C@H](CCC(=O)O)NC1=O | Interleukin-1 receptor-like 2 (IL1RL2, Homo sapiens, UniProt Q9HB29) | reporter gene (SEAP), inhibitor, HEK-Blue IL-36R reporter | HEK-Blue IL-36R cells | 0.14 µM, 6 h, with: IL-36β 1 ng/mL | – | remaining activity | 90.2%
OC[C@H]1c2[nH]cnc2[C@H](O)[C@@H](O)[C@@H]1O | bglA (Thermotoga maritima, UniProt Q08638) | ITC | – | pH 5.8, 25 °C | – | ΔG | -6.07 ± 0.215 kcal/mol
N#C[Se]CCCCCCOc1ccc2c(-c3ccccc3)cc(=O)oc2c1 | CA12 (Homo sapiens, UniProt O43570) | stopped-flow CO2 hydration | – | – | baseline: Ki CA II over Ki CA XII | selectivity ratio | > 609
COC(=O)Cc1cc2c(cc1C(=O)c1ccccc1Br)OCO2 | Gria1/Gria2 | glutamate-evoked current, whole-cell patch clamp | HEK-293T | concentration not given, weighted tau, 500 ms pulse, with: glutamate | – | desensitization time constant | 4.9 ± 0.3 ms
COc1cc2ncnc(Nc3ccc(-c4ccccc4)cc3)c2cc1OC | SMUG1 (Homo sapiens, UniProt Q53HV7) | enzyme activity, activator, fluorescence | – | 20 µM | baseline: control | activity | 220 ± 20%
O=C(O)Cc1cc2c(cc1C(=O)c1ccccc1Br)OCO2 | Gria1/Gria2 | whole-cell patch clamp | HEK-293T | concentration not given, with: glutamate | – | deactivation time constant | 5.6 ± 0.3 ms
CCCCCC(O)/C=C/C=O (stereo not drawn) | EEF1A1 | acylphosphate-ATP probe SILAC-ABPP | ZAK-transfected HEK293T | 100 µM, with: acylphosphate-ATP probe | baseline: DMSO over compound-treated | probe labelling ratio | 0.64
O=C(O)Cc1cc2c(cc1C(=O)c1ccccc1I)OCO2 | Gria1/Gria2 | whole-cell patch clamp | HEK-293T | concentration not given, with: glutamate | – | desensitization time constant | 4.4 ± 0.3 ms
CC(=O)NCCCC[C@H](NC(=O)[C@H](CCCNC(=N)N)NC(=O)[C@H](C)NC(=O)[C@H](C)NC(=O)[C@H](CCCCN)NC(=O)[C@@H](N)[C@@H](C)O)C(=O)N[C@@H](CO)C(=O)N[C@@H](C)C(=O)N1CCC[C@H]1C(=O)N[C@@H](C)C(=O)N[C@H](C(=O)O)[C@@H](C)O | YEATS domain-containing protein 4 (Homo sapiens, UniProt O95619, E109A) | differential scanning fluorimetry | – | with: 50 µM peptide | baseline: buffer-only reference | ΔTm | 0.38 ± 0.05 °C
COC(=O)[C@@]1(C)C=C(C(=O)Nc2cccc(C(=O)Nc3ccc(Nc4nccc(-c5cccnc5)n4)c(C)c3)c2)C(=O)CC1 | MAPK8 (Homo sapiens, UniProt P45983, C116S) | noncovalent binding, SPR | – | 100, 300, 1000 nM, two-step kinetic model | – | kon | 190000 M⁻¹ s⁻¹
CC(=O)c1cnc(NS(=O)(=O)c2ccc(C(F)(F)F)c(Cl)c2)nc1 | 17-beta-hydroxysteroid dehydrogenase 13 | enzyme activity | human hepatocytes, HSD17B13 siRNA, culture medium | 7 h | baseline: scramble siRNA control | oxidized product ratio | 0.0508 and 0.0514 and 0.0767 and 0.0745
C=CC(=O)N1CCCC(n2c(=O)c3ncccc3n(Cc3ccc(Oc4ccccc4)cc3)c2=O)C1 (stereo not drawn) | Acetyl-CoA acetyltransferase, cytosolic (Homo sapiens, UniProt Q9BWD1) | thermal proteome profiling, refers to: ACAT2 | – | treated | – | melting temperature | 52.9 °C and 53.1 °C
O=C1c2sc(-c3ccc(N4CCC(F)C4)nc3F)nc2CCN1c1cccnc1 (stereo not drawn) | TARDBP aggregated | saturation autoradiography | human, FTLD-TDP type A brain sections | 2.98 nM | – | specific binding | 43 nM
CC[C@H](C)[C@@H]1NC(=O)[C@H](C(C)C)NC(=O)[C@H](C(C)C)NC(=O)[C@H](CC(C)C)NC(=O)C[C@@H](C(=O)N[C@@H](Cc2c[nH]c3ccccc23)C(=O)N[C@@H](CC(N)=O)C(=O)N[C@@H](C)C(=O)N2CCC[C@H]2C(=O)NCC(=O)N[C@@H](Cc2c[nH]c3ccccc23)C(=O)N[C@@H](Cc2ccccc2)C(=O)O)NC(=O)[C@H](C)NC(=O)[C@H](CCC(N)=O)NC(=O)[C@H](C(C)C)NC1=O | TLR4 (Homo sapiens, UniProt O00206) | antagonist, ELISA | – | 1 µg/mL, with: LPS | baseline: DMSO control, lower means stronger antagonism | OD450 in LPS binding ELISA | 0.535 a.u. and 0.563 a.u. and 0.549 a.u. and 0.521 a.u.
CC1CCC2C(C)(C)C(O)CCC2(C)C12Cc1c(O)cc(CO)c(C=O)c1O2 (stereo not drawn) | StaI′ Stachybotrys chartarum | substrate | – | 30 min, pH 7.5, 40 °C | – | Km | 641 µM
CCCCCCCCCCCCCCCc1cccc(OCC)c1C(=O)Nc1ccc(Cl)c(C(F)(F)F)c1 | KAT5 (Homo sapiens, UniProt Q92993) | SPR | – | 17 µM | higher = more binding | SPR binding response | 0.405 RU
O[C@@H]1[C@@H](O)[C@H](F)C=C[C@H]1O | GBA1 (Homo sapiens, UniProt P04062) | covalent inhibitor, continuous progress curves | – | concentration not given, with: substrate | – | time to steady-state activity | 30 to 60 min

For quick reference, copied from above:
Structure (SMILES) | target or system | assay | system | setting | how to read | quantity | result
OC[C@H]1c2[nH]cnc2[C@H](O)[C@@H](O)[C@@H]1O | bglA (Thermotoga maritima, UniProt Q08638) | ITC | – | pH 5.8, 25 °C | – | ΔG | -6.07 ± 0.215 kcal/mol
CCCCCc1ccc(Cc2cc(/C=C/C(=O)OC)cc3cccnc23)cc1 | Glideosome-associated protein 50 (GAP50, Plasmodium falciparum, UniProt Q8I2X3) | differential scanning fluorimetry | – | – | – | ΔTm | 0 °C
Nc1ccccc1C(=O)NC1CCN(Cc2ccccc2)CC1 | Sodium- and chloride-dependent glycine transporter 2 | MS binding competition | – | 10 µM | – | remaining specific binding | 94.9 ± 3.5%
